Experimental data gathered from unrelated publications.
Parts stem from different laboratories: compare values within a part only.

Series 1
Target: Histone acetyltransferase KAT6A, winged helix 1, GST fusion (KAT6A, Homo sapiens, UniProt Q92794, residues 1-85)
Technique: protein binding microarray
Form: double-stranded DNA, one strand shown
Matrix: in vitro
Concentration: not given
Setting: 8-mer, flanks averaged, mean of 2 arrays, mostly near background
Baseline: not given
Direction: higher = stronger binding
Target sequence (chain): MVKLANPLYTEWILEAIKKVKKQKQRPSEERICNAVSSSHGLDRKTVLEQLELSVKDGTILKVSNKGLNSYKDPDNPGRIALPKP
Strand | E-score
CCGATCAA | 0.0891
CTGGCGTA | 0.0133
CAGGATTA | -0.0455
CTAACACC | -0.0994
GAAGGGCC | -0.0315
CTTGGAGC | -0.0906
CCTGGTCC | -0.128
CAAGGTTC | -0.0288
ATACAGCG | 0.135
AGACCATC | -0.0348
CAACTATA | -0.067
ACAGGATG | -0.144
ACCAGCCC | 0.0499
AAATCATT | -0.167
AGGCCTAA | -0.194
CCTACCCG | 0.212
GTGATGTA | -0.0778
AGCGAACC | 0.0972
ACTCGACT | -0.278
GACATTCA | -0.12
ACAGATCC | -0.0949
CCACCGCA | 0.211
GAACTGCA | -0.124
CTACAACC | 0.00238
ACAAGGCA | -0.262

Series 2
Target: RNA binding protein fox-1 homolog 2, RRM domain, GST-SBP tag (RBFOX2, Homo sapiens, UniProt O43251-10, residues 100-194)
Technique: RNA Bind-n-Seq
Form: RNA
Matrix: in vitro
Concentration: 365 nM
Setting: natural RNA segment, single round, ends assumed
Baseline: no-protein control
Direction: higher = stronger binding
Target sequence (chain): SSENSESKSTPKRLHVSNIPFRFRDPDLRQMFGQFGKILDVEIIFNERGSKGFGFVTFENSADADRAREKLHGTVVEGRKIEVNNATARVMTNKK
Strand | RBNS enrichment (R)
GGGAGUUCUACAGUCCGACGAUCCCCCAGUCCCCACAGUGGCCCCACCUCUGGGCCCUGCACCAGAGCCCUUCUGUGUCACGGCGGGCUGUGCACCCAUGCACACACCUACGCACACACAACACUCCGCACUGUGGAAUUCUCGGGUGCCAA | 0.639
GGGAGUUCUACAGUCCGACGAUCCAUAAGUAUAAGAAAUAUGCAUCAUAUCUGCCUAUUGCAGGCUUCUGAAACUUGCACUGCCCAUCCAUGCAAAAAUAAGUAUCUUAAAUAAAAGCAGAGAGCAAAAACUGUGGAAUUCUCGGGUGCCAA | 0.35
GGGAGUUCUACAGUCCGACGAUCGCACAUGCUUCAGAAUCCUAUGGAAGAGAAUAUUCCUACUUGCAGUACAUCAAAGGAAUGGAUGGUGGACCCUACUAUUCAUGUUUUGAGACAUAAAUGUUCACUUUAAAUGGAAUUCUCGGGUGCCAA | 0.647
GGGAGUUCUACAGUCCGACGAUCACUUUUUCCACGGGGUCCUUUUAUCACAAAAUUAAACAAUUAUGAAACAUUCUGUCCACAAAGACUAUUUUAAGGCAUAUUCAACUGGUAUUUCAUUUAUUCUUAUGGACUGGAAUUCUCGGGUGCCAA | 0.596
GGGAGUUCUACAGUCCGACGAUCGACUGCGCCCUGAGGACGUGGACGCUGUUAGGAACCAAACUCUGUCCUGAGCUUCCUCUAGCUCACUCUAGAAGUAAUGGUCUAAUCAAAGGUCGUCUGUCUGCUUUUGAUGGAAUUCUCGGGUGCCAA | 0.262
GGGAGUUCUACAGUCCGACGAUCAUGCCGUUUUCUUACACUACCAGUGGAUGUCCAGACAUGCUCUUAGUCUACUAGAGAGGUGCUGCCUUUUCUAAGUCAUAAUGAGGAACAGUCCCUUAAUUUCUUGUGUGUGGAAUUCUCGGGUGCCAA | 0.395
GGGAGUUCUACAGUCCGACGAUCGGCCAACAUGGGCUUCUGAACCCUUCAGGCAGGGACAGUUCUAUUGCUGUCCCUACAAUAUAUAAGGUGACUUCUGGCCAUGCUGCCCUGCCAUUGGCGGCUCUGUGUGUUGGAAUUCUCGGGUGCCAA | 0.218
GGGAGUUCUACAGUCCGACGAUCGCAUUUUCUUUAUUAUUUUCAUUUCCCUUAUAUUAUCCAUCAUUCCUUAAGGACAAUUAUUCUUAAUAAUGCUUAUAGAAAAUGUUCUCUAAUUAAACAUGCCAAAAGGAUGGAAUUCUCGGGUGCCAA | 0.578
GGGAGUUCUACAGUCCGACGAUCCCCACCCCUUCUAAAGUGCAAUGCAAAAGGGACAUCAUGUAUAUGCAGCGUUUGUUUGGAAUUUUCUUUGCUUUUGUUUUCUUUGCGGUUGUUCUGUGUGCAUGGAUUCCUGGAAUUCUCGGGUGCCAA | 1.74

Series 3
Target: Fragile X messenger ribonucleoprotein 1, C-terminal low-complexity region (Fmr1, Mus musculus, UniProt P35922)
Technique: RNA Bind-n-Seq
Form: RNA
Matrix: in vitro
Concentration: 200 nM
Setting: whole 134-nt RNA, ends assumed
Added: 150 mM LiCl
Baseline: input library
Direction: higher = stronger binding
Each molecule: 7-deaza-guanosine replaces G
Strand | log2 enrichment
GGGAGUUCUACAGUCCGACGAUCACCAUGCAGGUGGGCAUCUUUGGGAAAAGGGGCAAGGGGGGGAUAGGGAGGGGGGUAACACUUUGGGAACAGGUGGUCCCAGGUCGUUUCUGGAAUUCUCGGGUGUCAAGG | 1.4
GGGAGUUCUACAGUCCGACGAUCUCAAGUCCUGUGCUACACAUCGUAUGUACCGAAUCGGCCCGGGCCCGGGCCCGGAAAGUAUUAUGUUACGCCGUUCGGAUCUGCACUUCCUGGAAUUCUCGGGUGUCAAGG | -2.19
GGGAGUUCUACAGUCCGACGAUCUAACUUUAGAGGAGGAUCUGAUGGAUAUGGCAGUGGACGUGGAUUUGGGGAUGGCUAUAAUGGGUAUGGAGGAGGACCUGGAGGUGGCACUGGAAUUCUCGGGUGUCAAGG | 1.04
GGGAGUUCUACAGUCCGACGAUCUGUACAAACACUUUCCCAUCCCCCUCAUUAACCGGCUGGAGAAGCACUAUCUGGAUAUCAACACGGUGCUGGAGAAAUGGCAGAAGAGCAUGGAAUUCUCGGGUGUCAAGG | 0.525
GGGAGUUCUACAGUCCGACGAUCCUGUGCUACACAUCGUAUGUACCGAAUCGGGGUUUUUUGGGGUUUUUUGGGGUUUUUUGGGAAAGUAUUAUGUUACGCCGUUCGGAUCUGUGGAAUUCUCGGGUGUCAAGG | 1.05
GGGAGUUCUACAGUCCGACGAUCCUCAAGUCCUGUGCUACACAUCGUAUGUACCGAAUCGGGGCCGGCCGGGCCGGAAAGUAUUAUGUUACGCCGUUCGGAUCUGCACUUCCAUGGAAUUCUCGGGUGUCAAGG | 0.667
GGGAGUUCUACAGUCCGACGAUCUCCUGUGCUACACAUCGUAUGUACCGAAUCGGGGAAAAAGGGGAAAAAGGGAAAAAGGGGAAAGUAUUAUGUUACGCCGUUCGGAUCUGCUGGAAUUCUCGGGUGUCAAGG | -0.521
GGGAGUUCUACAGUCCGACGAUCUGGCCCUCAAGCACUGCACAGAGGCCCUUCUUUCUCUUGGCCAGUACUCCAUGGCAGACUUCACAGGGCCUUGUCCAUUGGAAAUAGAACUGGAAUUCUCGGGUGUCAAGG | 0.352
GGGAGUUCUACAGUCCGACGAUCAAGUCCUGUGCUACACAUCGUAUGUACCGAAUCGGGGAAAGGGGAGGGGUUUGGGGAAAGUAUUAUGUUACGCCGUUCGGAUCUGCACUUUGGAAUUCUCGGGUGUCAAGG | -0.471
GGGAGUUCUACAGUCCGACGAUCACCAUGCAGGUGGGCAUCUUUGGGAAGUGGGGCAAGGUGGGGAUAGGGAGGGGGGUAACACUUUGGGAACAGGUGGUCCCAGGUCGUUUCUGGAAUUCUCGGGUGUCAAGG | 0.839
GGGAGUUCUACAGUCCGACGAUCUUCCUCAAGUCCUGUGCUACACAUCGUAUGUACCGAAUCGGUGGUGGUGGGAAAGUAUUAUGUUACGCCGUUCGGAUCUGCACUUCCAGCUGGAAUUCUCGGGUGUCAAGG | 0.901

Series 4
Target: Sal-like protein 4, full length isoform B (SALL4, Homo sapiens, UniProt Q9UJQ4-2, residues 1-616)
Technique: universal PBM
Form: double-stranded DNA, one strand shown
Matrix: in vitro
Concentration: not given
Setting: 8-mer, flanks averaged, mean of replicates
Direction: higher = stronger binding
Construct (chain): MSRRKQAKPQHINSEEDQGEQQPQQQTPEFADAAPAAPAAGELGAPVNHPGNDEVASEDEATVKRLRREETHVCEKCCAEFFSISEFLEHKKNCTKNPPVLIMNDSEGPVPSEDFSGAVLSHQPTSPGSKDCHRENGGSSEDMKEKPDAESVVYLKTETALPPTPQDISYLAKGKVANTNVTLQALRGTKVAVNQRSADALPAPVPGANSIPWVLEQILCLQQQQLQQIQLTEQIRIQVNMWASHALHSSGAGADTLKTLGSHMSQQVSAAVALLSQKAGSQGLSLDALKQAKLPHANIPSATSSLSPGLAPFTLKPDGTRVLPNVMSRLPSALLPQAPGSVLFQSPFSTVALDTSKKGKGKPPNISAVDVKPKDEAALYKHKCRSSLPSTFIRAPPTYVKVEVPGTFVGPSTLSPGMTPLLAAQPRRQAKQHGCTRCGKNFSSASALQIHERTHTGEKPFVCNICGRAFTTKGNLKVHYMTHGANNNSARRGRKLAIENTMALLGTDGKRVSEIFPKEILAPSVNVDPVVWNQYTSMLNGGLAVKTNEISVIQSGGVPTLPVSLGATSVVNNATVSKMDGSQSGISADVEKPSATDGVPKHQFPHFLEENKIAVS
Strand | E-score
GAGTCTAA | 0.00489
GGAAAAAA | 0.29
CGGGGATC | -0.388
ATCTTGAA | 0.191
GTACGCTA | 0.00892
CCTTGGTC | -0.212
CGTCATAA | 0.33
CAGTCTGG | -0.181
CCGCTCAG | -0.248
CCCCGAAG | -0.14
CATTTACG | 0.0919
CTAGGTGA | -0.201
GTTATTCA | 0.273
GACCCTCA | -0.0569
AACTATAC | 0.268
CCACGTTC | -0.188
CCTTCGAC | -0.147
GCCCTGTA | -0.0654
AAGCCGAT | 0.0362
CATAAGTA | 0.226
GGTGCCTA | -0.154
GCCCGGCA | -0.355
CCGCGCGG | -0.213
CGTCTAAG | -0.194

A few entries again (series 3):
Strand | log2 enrichment
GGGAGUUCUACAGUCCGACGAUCUGUACAAACACUUUCCCAUCCCCCUCAUUAACCGGCUGGAGAAGCACUAUCUGGAUAUCAACACGGUGCUGGAGAAAUGGCAGAAGAGCAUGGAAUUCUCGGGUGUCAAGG | 0.525
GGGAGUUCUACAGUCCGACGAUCACCAUGCAGGUGGGCAUCUUUGGGAAAAGGGGCAAGGGGGGGAUAGGGAGGGGGGUAACACUUUGGGAACAGGUGGUCCCAGGUCGUUUCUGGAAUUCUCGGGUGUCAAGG | 1.4
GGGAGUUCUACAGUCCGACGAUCCUCAAGUCCUGUGCUACACAUCGUAUGUACCGAAUCGGGGCCGGCCGGGCCGGAAAGUAUUAUGUUACGCCGUUCGGAUCUGCACUUCCAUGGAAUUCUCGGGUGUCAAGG | 0.667
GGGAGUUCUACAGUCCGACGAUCUAACUUUAGAGGAGGAUCUGAUGGAUAUGGCAGUGGACGUGGAUUUGGGGAUGGCUAUAAUGGGUAUGGAGGAGGACCUGGAGGUGGCACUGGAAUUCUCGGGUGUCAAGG | 1.04
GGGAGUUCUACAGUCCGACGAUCUUCCUCAAGUCCUGUGCUACACAUCGUAUGUACCGAAUCGGUGGUGGUGGGAAAGUAUUAUGUUACGCCGUUCGGAUCUGCACUUCCAGCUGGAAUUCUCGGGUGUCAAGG | 0.901
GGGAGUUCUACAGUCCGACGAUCUCAAGUCCUGUGCUACACAUCGUAUGUACCGAAUCGGCCCGGGCCCGGGCCCGGAAAGUAUUAUGUUACGCCGUUCGGAUCUGCACUUCCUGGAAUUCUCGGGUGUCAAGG | -2.19
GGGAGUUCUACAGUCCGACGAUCUCCUGUGCUACACAUCGUAUGUACCGAAUCGGGGAAAAAGGGGAAAAAGGGAAAAAGGGGAAAGUAUUAUGUUACGCCGUUCGGAUCUGCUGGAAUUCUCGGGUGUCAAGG | -0.521
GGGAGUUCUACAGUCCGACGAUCCUGUGCUACACAUCGUAUGUACCGAAUCGGGGUUUUUUGGGGUUUUUUGGGGUUUUUUGGGAAAGUAUUAUGUUACGCCGUUCGGAUCUGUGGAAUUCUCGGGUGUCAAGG | 1.05
